Published values pooled from the literature.
Every numbered part comes from another study and shows a few of its results, in no order.
UniProt P16234, sequence (whole entry, looked up): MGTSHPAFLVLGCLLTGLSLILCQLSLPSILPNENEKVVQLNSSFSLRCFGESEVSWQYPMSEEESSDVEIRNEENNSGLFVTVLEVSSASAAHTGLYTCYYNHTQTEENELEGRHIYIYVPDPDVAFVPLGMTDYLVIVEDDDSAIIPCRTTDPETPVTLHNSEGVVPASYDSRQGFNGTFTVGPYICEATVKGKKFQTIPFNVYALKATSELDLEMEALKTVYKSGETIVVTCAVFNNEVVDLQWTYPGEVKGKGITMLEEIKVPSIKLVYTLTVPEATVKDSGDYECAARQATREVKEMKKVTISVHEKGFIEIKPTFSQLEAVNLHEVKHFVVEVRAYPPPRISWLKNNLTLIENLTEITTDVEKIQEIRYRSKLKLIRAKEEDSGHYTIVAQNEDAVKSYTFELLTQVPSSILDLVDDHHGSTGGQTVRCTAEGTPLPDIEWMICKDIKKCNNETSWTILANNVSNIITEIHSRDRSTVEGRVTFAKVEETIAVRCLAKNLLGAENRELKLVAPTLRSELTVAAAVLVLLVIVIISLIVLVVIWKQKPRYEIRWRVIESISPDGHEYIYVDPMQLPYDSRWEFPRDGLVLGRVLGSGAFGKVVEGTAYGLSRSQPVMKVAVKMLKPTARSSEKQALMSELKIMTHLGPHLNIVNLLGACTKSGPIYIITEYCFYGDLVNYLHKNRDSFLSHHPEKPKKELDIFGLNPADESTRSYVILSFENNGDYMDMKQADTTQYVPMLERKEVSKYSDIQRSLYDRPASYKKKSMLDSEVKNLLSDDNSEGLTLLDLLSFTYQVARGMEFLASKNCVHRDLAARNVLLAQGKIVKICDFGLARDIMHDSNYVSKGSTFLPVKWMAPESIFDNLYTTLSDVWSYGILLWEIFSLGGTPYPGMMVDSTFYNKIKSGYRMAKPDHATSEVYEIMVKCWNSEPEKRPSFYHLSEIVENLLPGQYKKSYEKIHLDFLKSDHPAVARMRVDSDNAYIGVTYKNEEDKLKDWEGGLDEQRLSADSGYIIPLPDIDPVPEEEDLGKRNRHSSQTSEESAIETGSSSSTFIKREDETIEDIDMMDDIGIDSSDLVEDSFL
UniProt P21709, sequence (whole entry, looked up): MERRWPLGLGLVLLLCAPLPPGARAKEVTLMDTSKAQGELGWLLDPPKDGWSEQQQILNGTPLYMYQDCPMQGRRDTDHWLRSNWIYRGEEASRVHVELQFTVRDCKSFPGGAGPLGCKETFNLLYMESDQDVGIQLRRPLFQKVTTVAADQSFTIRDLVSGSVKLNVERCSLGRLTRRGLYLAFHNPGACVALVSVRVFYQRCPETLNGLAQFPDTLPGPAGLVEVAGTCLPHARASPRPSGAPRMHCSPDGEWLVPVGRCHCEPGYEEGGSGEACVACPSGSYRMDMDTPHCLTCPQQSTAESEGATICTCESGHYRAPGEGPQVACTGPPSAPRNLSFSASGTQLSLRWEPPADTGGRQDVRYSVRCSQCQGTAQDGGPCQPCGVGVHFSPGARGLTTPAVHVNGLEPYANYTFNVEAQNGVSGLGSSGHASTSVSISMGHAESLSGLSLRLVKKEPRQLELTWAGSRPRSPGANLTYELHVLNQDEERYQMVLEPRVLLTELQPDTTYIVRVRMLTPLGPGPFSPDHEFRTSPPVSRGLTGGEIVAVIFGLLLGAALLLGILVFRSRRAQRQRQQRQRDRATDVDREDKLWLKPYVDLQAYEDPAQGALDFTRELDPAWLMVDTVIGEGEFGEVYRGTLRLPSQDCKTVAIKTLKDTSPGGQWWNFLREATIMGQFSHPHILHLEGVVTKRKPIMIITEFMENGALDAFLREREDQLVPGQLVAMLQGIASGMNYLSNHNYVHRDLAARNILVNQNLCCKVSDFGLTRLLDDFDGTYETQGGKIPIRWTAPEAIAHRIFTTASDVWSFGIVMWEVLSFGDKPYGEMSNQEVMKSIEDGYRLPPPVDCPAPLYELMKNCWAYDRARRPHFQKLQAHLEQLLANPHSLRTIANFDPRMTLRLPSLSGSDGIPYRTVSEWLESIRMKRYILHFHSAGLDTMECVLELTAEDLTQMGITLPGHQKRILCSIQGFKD
UniProt Q14004, sequence (whole entry, looked up): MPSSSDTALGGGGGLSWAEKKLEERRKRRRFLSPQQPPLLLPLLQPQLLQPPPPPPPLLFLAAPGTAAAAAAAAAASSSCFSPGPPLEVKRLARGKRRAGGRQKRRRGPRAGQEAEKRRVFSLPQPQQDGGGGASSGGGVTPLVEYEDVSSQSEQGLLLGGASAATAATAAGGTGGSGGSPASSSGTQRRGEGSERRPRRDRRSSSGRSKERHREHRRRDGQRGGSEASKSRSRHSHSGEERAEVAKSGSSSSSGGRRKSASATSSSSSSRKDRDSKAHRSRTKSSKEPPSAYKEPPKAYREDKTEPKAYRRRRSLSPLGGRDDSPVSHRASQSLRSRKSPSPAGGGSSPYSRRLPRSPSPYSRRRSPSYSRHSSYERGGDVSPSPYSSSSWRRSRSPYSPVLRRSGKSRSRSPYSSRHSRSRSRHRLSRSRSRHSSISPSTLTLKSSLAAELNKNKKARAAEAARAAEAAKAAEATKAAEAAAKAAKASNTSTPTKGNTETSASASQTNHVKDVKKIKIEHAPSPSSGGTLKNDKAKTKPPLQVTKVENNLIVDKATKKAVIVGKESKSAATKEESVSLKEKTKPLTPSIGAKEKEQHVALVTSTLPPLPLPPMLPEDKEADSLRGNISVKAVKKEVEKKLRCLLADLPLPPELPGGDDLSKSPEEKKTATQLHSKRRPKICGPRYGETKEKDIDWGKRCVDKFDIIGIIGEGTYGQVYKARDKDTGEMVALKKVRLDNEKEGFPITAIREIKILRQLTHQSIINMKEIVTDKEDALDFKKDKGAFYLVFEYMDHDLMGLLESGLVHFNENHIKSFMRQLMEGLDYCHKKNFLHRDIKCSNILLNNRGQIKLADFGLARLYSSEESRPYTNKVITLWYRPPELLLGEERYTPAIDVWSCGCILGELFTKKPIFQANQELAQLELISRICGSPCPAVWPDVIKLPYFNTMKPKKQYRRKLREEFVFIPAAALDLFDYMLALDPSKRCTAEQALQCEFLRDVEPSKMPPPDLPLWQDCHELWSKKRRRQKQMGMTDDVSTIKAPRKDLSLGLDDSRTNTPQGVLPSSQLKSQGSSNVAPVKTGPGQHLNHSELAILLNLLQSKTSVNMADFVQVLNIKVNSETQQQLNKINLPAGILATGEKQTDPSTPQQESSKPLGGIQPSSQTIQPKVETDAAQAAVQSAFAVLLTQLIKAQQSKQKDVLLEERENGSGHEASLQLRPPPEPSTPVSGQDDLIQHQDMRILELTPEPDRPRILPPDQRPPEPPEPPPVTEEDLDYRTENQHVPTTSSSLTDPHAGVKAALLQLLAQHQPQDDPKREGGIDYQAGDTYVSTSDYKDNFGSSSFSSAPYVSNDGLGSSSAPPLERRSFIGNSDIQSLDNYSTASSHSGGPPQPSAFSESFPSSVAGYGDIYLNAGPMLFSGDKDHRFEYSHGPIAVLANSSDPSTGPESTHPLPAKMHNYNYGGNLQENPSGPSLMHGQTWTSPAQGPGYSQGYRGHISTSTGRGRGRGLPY
UniProt P08069, sequence (whole entry, looked up): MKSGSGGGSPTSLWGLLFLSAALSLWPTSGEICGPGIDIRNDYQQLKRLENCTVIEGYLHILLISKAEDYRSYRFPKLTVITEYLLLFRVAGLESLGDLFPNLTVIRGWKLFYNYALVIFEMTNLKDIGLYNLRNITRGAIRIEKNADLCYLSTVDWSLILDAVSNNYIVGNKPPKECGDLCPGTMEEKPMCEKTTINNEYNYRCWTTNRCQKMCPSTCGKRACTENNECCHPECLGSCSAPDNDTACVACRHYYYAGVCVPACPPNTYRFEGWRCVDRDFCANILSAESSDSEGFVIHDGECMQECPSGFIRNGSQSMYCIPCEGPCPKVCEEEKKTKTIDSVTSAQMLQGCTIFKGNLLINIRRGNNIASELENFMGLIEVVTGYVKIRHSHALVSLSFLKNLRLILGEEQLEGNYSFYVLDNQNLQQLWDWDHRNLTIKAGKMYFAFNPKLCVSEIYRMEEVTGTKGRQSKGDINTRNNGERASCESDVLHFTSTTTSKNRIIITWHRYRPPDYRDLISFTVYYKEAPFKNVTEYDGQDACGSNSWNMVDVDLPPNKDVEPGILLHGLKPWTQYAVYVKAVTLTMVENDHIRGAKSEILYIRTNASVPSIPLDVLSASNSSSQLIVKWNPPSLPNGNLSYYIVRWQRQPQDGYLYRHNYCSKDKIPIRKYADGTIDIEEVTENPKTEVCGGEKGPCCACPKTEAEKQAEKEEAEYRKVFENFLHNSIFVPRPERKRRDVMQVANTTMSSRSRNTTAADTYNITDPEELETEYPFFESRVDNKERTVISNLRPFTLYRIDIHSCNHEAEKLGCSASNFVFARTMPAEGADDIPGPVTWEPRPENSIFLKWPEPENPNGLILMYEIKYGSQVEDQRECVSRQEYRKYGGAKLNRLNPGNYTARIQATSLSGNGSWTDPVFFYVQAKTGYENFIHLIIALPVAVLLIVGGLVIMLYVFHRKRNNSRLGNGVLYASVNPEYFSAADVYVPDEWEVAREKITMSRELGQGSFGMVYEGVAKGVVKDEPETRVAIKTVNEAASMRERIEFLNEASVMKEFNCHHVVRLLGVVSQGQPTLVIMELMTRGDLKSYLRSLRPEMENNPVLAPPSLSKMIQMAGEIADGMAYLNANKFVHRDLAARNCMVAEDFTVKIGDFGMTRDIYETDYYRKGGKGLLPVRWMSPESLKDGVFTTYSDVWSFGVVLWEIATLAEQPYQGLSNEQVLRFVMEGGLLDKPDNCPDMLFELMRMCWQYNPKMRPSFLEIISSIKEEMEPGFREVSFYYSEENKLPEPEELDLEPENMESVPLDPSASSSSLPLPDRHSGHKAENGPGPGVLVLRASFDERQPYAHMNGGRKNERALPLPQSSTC

Block 1
SMILES: CCCOc1ccc([C@@H]2[C@@H](C(=O)O)[C@H](c3ccc4c(c3)OCO4)CN2CC(=O)Nc2c(CC)cccc2CC)cc1
Effect on: cell-free assay
Technique: competition with immobilised ligand
Tested at: 1 µM
It gave 88% for remaining binding (IGF1R (Homo sapiens, UniProt P08069)).
The remaining binding was 90% (Ribosomal protein S6 kinase alpha-4, C-terminal kinase domain (RPS6KA4, Homo sapiens, UniProt O75676)).
The remaining binding was 76% (PDGFRA (Homo sapiens, UniProt P16234)).
The remaining binding was 100% (EGFR (Homo sapiens, UniProt P00533, del752-759)).
For FLT3 (Homo sapiens, UniProt P36888, R834Q): remaining binding read 100%.
The remaining binding was 81% (CDK13 (Homo sapiens, UniProt Q14004)).
MAP2K4 (Homo sapiens, UniProt P45985) — remaining binding: 83%.
The remaining binding was 100% (EPHA1 (Homo sapiens, UniProt P21709)).

Block 2
Cell line: A-375
Tested at: 100 µM
Time: 18 h
`CNCC(O)c1ccc(O)c(O)c1` (racemic) has a viability of 144%.
The viability of `Cc1c(O)c(=O)n(-c2ccccc2)n1C` is reported as 88.9%.
The viability of `O=C1c2c(O)ccc(O)c2C(=O)c2c(NCCNCCO)ccc(NCCNCCO)c21` is reported as 3.97%.
`CC(C)N(CCCCOCC(=O)NS(C)(=O)=O)c1cnc(-c2ccccc2)c(-c2ccccc2)n1` gave a viability of 43.4%.
For `CN1CCN2c3ncccc3Cc3ccccc3C2C1` (stereo not shown), the viability was 96.6%.
With `O=C(O)CC(O)(CC(=O)O)C(=O)O` the viability was 92.5%.

Single results of other studies
With `CCC[C@H]1NC(=O)CSC[C@@H](C(=O)OCC)N(C)C(=O)[C@H](CC(C)C)NC(=O)[C@H](C)N(C)C(=O)[C@H](CC(C)C)NC(=O)[C@H](C)N(C)C(=O)[C@@H]2CCCN2C(=O)[C@H](CC(C)C)NC(=O)CN(CCC)C1=O` the logD was 0.757 (hydrocarbon/water).
`CC(C)n1cnc(-c2ccc(F)cc2)c1-c1ncc(C(=O)Nc2ccc(N3CCN(C)CC3)cc2)[nH]1`: “patients with electrocardiogram QT prolonged” 0% (human, idiopathic pulmonary fibrosis; 30 mg once daily, trial, treatment-emergent).

A few entries again (block 1):
The remaining binding was 81% (CDK13 (Homo sapiens, UniProt Q14004)).
The remaining binding was 100% (EPHA1 (Homo sapiens, UniProt P21709)).
